Assay results from different studies.
Parts stem from different laboratories: compare values within a part only.

Set 1 — method: protein-binding microarray; form: double-stranded DNA, one strand shown; matrix: in vitro; concentration: 2540 nM top; setting: 60-bp whole probe; together with: salmon DNA 0.4 mg/ml; relative to: random background probes; reading: higher = stronger binding; shared flanks, not repeated: GCCTAGCAC … GTCTTGATTCGCTTGACGCTGCTG
Target: Interferon regulatory factor 3, full length, phosphomimetic (IRF3, Homo sapiens, UniProt Q14653, residues 1-427, S386D/S396D/S398D/S402D/T404D/S405D)
Sequence of UniProt Q14653 (whole entry, unmodified, looked up): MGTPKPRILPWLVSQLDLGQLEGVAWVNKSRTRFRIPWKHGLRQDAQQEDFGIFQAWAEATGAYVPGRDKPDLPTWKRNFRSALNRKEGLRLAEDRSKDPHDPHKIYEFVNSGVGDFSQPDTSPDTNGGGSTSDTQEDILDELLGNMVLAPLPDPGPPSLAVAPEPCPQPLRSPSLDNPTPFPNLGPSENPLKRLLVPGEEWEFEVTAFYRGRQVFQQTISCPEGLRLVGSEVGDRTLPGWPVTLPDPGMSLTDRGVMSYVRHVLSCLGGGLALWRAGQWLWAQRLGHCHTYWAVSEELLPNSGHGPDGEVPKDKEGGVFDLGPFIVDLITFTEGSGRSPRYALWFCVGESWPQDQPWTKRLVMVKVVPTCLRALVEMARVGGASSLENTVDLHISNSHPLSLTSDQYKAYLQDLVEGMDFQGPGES
Strand | fitted relative affinity [z-score]
TTAGGTATCGGTTATCGGTTAGTGCTA | 3.86
GACGGTATCGGCTATCGGGACGTGCTA | 0.554
TTAGATCTGAGTCTCGATTAGTGCTAG | -0.00241
TCATTTCTAATATTCTGACTGTGCTAG | 2.19
GACGGTAGCCTTCTCCTGACGTGCTAG | 2.02
TGAGGTTTCCTTTCCCTTTAGTGCTAG | 10.5

Set 2 — method: competition protein-binding microarray; form: double-stranded DNA, one strand shown; matrix: in vitro; concentration: 2 µM; together with: Cbf1 competitor, 0.05 µM; reading: higher = stronger binding; shared flanks, not repeated: … GTCTTGATTCGCTTGACGCTGCTG
Target: Phosphate system positive regulatory protein PHO4, full length, GST-tagged (PHO4, Saccharomyces cerevisiae, UniProt P07270, residues 1-312)
Setting: whole 60-bp probe, lowest competitor level
Construct (chain): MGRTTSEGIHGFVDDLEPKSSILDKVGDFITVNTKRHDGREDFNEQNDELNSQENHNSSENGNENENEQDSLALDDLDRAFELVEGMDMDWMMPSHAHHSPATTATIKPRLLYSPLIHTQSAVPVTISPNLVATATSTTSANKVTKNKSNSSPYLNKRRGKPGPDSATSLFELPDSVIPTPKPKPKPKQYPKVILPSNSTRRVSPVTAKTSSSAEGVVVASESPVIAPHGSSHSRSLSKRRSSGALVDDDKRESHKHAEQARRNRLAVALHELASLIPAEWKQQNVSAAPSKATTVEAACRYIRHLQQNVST
Strand | fluorescence intensity [a.u.]
CGTCCTAGTGATTGCCATGTGGGTGCCATGAGGAAG | 12000
CATACCCAACCTTGCGCTGTGGGTGAAGATATTTGT | 4020
ATACGACTCCCAACACACGTTTAATGTTGTACGAAT | 11900
CCTAATGTTAACGGCCACGGGGAATGCGGATCAACT | 9970
GATTTCTTAGCCCATCACGTGCTAACTTTTTGGAAT | 15200

Set 3 — method: protein binding microarray; form: double-stranded DNA, one strand shown; matrix: in vitro; concentration: not given; relative to: not given; reading: higher = stronger binding
Target: Histone acetyltransferase KAT6A, both winged helices, GST fusion (KAT6A, Homo sapiens, UniProt Q92794, residues 1-181)
Setting: 8-mer, flanks averaged, mean of 2 arrays, mostly near background
Target sequence (chain): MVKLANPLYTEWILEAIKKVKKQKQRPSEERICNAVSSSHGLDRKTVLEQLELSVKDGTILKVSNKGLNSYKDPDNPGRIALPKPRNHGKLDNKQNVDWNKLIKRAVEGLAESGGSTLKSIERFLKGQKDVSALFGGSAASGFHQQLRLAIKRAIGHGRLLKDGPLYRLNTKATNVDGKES
Strand | E-score
AGTACGAT | -0.0502
CATACGGA | 0.148
GATATCAC | -0.0752
GGACCCGA | 0.0936

Single results of other studies
Substance | target | test | system | setting | how to read | quantity | result
PhoQ, residues 284 288 289 292 302 303 SSLVEF | PhoP, residues 12 14 15 18 19 GQALL (Escherichia coli, UniProt P23836) | Sort-seq, measured: YFP reporter | E. coli | PhoQ-PhoP variant library, together with: 10 µM Mg2+ | relative to: high Mg2+ state, higher = stronger signaling | fold induction | 13.6

A few entries again (set 3):
Strand | E-score
AGTACGAT | -0.0502
